Results from different studies.
Protocols differ between the studies behind these lines.

The AUC of CC[C@H](C)[C@@H]1NC(=O)[C@@](C)(NC(=O)[C@H](CCCNC(=N)N)NC(=O)[C@H](CC(C)C)NC(=O)[C@@H](NC(=O)[C@H](CCC(N)=O)NC(=O)[C@H](CC(C)C)NC(C)=O)[C@@H](C)O)CCCC=CCCC[C@@](C)(C(=O)N[C@@H](CC(C)C)C(=O)N[C@@H](Cc2ccc3ccccc3c2)C(N)=O)NC(=O)[C@H](CCCNC(=N)N)NC(=O)[C@H](CCC(N)=O)NC1=O is reported as 143 µM·h (male BALB/c mouse, plasma; intravenous, 10 mg/kg).
Cl.N=C(CC(O)c1cc2c(F)cc(F)cc2c2cc(C(F)(F)F)ccc12)Nc1ccc(Br)cc1 (centres unmarked) has an AUC(0-t) of 93.9 µM·h (mouse, blood; oral, 50 mg/kg, infected).
Cc1cc2sc(N)nc2c2cccnc12 gave an AUC of 45500 ng·h/mL (female BALB/c mouse, plasma; intraperitoneal, 30 mg/kg, single dose).
For CN(C)C(=O)c1cc2cnc(Nc3ccc(-c4ccc5c(=O)cc(N6CCOCC6)oc5c4)cc3)nc2n1C1CCCC1, the AUC(0-t) was 2880 ng·h/mL (BALB/c mouse, plasma; oral, 20 mg/kg).
COc1cccc2c1C(=O)c1c(O)c3c(c(O)c1C2=O)C[C@@](O)(C(=O)CO)C[C@@H]3O[C@H]1C[C@H](N)[C@H](O)[C@H](C)O1 has an AUC of 4.13 µM·h (mouse, plasma; intravenous, 13.3 mg/kg).
For Nc1ncn([C@H]2C[C@H](O)[C@@H](CO)O2)c(=O)n1, the AUC(0-inf) was 185 ng·h/mL (female C57BL/6 mouse, plasma; intravenous, 0.4 mg/kg).
With CC/C(=C(\c1ccc(O)cc1)c1ccc(OCCNC)cc1)c1ccccc1 the AUC was 31.8 ng·h/mL (female C57BL/6 mouse, plasma; oral, 1 mg/kg, single dose).
The AUC(0-t) of CCN1CCN(Cc2ccc(NC(=O)c3ccc(C)c(NC(=O)c4cncc(-c5cccs5)c4)c3)cc2C(F)(F)F)CC1 is reported as 2740 ng·h/mL (mouse, plasma; intraperitoneal, 30 mg/kg, single dose).
